Published values collected from several papers.
Lines come from different studies, so protocols differ.
CDK7 with cyclin H: Cyclin-dependent kinase 7, with cyclin H (CDK7, Homo sapiens, UniProt P50613)
UniProt P50613, sequence (whole entry, looked up): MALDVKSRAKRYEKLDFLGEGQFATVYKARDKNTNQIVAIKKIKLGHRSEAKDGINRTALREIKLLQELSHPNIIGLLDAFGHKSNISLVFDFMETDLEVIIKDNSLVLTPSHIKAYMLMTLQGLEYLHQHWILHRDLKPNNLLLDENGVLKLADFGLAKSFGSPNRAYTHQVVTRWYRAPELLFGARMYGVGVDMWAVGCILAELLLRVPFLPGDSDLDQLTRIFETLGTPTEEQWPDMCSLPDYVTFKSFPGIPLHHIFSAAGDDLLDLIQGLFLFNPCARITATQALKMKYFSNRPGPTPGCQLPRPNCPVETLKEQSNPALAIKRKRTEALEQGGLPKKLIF
AMY2: Pancreatic alpha-amylase (AMY2, Sus scrofa, UniProt P00690)
UniProt P00690, sequence (whole entry, looked up): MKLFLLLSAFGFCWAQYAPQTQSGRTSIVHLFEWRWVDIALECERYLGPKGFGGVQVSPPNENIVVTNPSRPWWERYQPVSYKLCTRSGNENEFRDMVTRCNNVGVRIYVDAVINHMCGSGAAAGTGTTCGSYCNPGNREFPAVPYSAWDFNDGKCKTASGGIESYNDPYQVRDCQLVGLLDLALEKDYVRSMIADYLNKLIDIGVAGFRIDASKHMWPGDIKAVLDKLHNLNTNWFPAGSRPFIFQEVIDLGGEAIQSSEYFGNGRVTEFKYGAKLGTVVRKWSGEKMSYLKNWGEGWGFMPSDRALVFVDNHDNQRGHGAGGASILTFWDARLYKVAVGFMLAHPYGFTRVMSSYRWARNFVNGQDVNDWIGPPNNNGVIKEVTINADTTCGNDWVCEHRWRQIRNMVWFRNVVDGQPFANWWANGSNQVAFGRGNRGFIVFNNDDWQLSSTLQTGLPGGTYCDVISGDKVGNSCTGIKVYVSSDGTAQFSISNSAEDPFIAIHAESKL
rep papain-like protease: Replicase polyprotein 1ab, papain-like protease (rep, Porcine epidemic diarrhea virus, UniProt P0C6Y4)
SLC22A11: Solute carrier family 22 member 11 (SLC22A11, Homo sapiens, UniProt Q9NSA0)
UniProt Q9NSA0, sequence (whole entry, looked up): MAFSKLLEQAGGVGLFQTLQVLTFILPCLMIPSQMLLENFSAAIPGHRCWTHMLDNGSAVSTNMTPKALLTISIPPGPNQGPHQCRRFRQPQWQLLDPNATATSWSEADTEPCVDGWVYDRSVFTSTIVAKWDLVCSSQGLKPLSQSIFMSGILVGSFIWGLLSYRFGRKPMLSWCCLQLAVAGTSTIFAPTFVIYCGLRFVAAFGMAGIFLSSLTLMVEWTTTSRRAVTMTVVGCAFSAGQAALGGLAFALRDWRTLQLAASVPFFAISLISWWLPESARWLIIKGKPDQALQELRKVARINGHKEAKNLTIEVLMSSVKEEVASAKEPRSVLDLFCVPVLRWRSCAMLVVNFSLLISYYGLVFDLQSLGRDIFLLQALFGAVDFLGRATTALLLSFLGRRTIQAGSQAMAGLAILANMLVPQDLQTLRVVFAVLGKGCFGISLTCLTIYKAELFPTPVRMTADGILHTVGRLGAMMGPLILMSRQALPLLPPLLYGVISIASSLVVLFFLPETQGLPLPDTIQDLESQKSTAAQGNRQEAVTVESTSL
PIP4K2C: Phosphatidylinositol 5-phosphate 4-kinase type-2 gamma (PIP4K2C, Homo sapiens, UniProt Q8TBX8)
UniProt Q8TBX8, sequence (whole entry, looked up): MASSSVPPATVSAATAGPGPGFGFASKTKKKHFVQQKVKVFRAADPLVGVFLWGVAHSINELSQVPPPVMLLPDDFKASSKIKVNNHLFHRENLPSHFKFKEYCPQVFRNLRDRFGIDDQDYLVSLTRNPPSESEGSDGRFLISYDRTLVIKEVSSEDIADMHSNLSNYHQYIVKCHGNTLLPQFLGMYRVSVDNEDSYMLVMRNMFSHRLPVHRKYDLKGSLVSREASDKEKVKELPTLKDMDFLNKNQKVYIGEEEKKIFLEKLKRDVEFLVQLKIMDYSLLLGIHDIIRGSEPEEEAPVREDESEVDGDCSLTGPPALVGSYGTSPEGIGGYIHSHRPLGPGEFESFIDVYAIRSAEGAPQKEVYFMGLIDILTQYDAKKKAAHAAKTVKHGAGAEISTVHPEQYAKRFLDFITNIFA
NT5E: 5'-nucleotidase (NT5E, Homo sapiens, UniProt P21589)
UniProt P21589, sequence (whole entry, looked up): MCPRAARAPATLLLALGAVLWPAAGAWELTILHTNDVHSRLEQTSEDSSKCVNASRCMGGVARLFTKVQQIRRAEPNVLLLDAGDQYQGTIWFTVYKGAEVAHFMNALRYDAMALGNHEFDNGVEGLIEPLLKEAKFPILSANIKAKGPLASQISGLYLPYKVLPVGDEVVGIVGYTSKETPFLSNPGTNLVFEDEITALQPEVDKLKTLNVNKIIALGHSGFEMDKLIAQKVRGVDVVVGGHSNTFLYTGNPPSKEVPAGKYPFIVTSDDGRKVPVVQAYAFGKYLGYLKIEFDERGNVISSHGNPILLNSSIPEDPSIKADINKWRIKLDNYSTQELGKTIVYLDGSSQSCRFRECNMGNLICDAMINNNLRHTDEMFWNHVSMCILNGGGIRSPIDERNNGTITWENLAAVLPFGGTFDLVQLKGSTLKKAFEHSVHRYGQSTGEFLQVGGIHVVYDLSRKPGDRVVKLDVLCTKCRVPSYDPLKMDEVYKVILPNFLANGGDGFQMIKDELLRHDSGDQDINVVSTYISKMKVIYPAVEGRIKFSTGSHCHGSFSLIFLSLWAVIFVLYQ
rep main protease: Replicase polyprotein 1ab, main protease (rep, Porcine epidemic diarrhea virus, UniProt P0C6Y4)
CA9: Carbonic anhydrase 9 (CA9, Homo sapiens, UniProt Q16790)
MAOB: Amine oxidase [flavin-containing] B (MAOB, Homo sapiens, UniProt P27338)
UniProt Q00535, sequence (whole entry, looked up): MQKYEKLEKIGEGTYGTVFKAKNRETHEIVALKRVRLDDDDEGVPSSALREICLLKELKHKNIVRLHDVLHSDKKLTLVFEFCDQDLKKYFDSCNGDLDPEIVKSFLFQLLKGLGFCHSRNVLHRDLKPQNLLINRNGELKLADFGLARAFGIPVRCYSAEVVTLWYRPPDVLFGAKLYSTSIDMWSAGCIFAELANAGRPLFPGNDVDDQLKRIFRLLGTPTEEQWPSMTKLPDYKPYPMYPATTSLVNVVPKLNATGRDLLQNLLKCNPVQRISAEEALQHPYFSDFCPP
UniProt P27815, sequence (whole entry, looked up): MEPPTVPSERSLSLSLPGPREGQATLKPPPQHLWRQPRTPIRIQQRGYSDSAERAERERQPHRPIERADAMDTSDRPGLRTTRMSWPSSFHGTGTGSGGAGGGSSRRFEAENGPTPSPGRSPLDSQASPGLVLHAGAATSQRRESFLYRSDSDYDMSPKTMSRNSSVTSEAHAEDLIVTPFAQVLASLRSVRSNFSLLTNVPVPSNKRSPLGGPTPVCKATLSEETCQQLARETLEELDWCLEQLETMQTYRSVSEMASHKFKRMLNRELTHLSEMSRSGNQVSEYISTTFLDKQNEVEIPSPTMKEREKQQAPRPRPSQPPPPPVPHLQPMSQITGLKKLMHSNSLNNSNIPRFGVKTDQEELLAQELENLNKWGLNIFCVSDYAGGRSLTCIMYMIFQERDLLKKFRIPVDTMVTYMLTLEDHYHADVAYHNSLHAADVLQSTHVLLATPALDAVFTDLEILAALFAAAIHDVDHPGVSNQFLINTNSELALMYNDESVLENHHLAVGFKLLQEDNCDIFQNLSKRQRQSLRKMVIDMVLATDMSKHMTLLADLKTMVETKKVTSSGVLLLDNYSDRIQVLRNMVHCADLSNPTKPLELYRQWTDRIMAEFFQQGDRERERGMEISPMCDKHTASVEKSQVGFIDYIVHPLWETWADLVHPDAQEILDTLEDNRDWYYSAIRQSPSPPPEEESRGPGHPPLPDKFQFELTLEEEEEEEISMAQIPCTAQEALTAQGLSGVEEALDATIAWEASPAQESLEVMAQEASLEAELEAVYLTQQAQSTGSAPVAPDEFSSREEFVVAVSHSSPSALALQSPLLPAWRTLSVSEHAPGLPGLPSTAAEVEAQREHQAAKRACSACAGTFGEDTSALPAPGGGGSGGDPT
UniProt P07333, sequence (whole entry, looked up): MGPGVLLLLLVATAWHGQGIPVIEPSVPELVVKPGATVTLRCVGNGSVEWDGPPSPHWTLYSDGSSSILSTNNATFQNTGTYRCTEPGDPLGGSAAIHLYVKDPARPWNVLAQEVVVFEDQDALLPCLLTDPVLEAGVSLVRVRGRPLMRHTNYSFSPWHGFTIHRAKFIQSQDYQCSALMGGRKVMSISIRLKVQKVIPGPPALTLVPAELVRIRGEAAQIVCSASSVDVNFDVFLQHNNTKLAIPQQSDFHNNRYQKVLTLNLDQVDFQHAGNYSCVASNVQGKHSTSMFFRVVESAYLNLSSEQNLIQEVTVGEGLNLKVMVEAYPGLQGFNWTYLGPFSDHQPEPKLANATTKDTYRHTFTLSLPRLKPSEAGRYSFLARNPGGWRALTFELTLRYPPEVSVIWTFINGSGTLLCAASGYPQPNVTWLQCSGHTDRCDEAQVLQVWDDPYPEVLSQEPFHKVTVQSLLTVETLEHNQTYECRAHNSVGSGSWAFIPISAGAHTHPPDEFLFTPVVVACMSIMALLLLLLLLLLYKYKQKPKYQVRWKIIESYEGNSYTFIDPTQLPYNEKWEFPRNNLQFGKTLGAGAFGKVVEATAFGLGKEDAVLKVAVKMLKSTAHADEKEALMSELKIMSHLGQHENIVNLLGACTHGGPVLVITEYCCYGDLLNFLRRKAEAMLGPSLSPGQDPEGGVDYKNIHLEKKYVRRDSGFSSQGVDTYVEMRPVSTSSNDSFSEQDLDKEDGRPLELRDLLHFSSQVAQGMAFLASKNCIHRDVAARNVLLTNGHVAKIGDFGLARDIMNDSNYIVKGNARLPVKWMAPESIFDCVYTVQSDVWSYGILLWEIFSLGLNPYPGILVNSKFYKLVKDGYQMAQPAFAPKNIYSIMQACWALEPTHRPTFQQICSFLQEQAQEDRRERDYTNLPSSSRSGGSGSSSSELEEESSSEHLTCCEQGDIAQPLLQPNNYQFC

CC(=NNC(=O)c1ccccc1Cl)c1ccc(Nc2nnc(-c3ccc(Cl)cc3)c3ccccc23)cc1  cell death (HepG2; cell growth or viability, MTT; 10 µM): 96.8%
COc1ccc(-c2cc(=O)c3c(O)c(OC)c(OC)c(OC)c3o2)cc1  inhibition (CDK7 with cyclin H; enzyme activity, inhibitor, ADP detection; 10 µM): 43.4%
CC(=O)Nc1ccc(Oc2nnc(-c3ccc(Cl)cc3)c3ccccc23)cc1  cell death (HepG2; cell growth or viability, MTT; 78 nM): 0.622%
CCN(O)N=Nc1ccc(S(=O)(=O)Nc2nccs2)cc1  inhibition (AMY2; enzyme activity, inhibitor; 180 µg/mL): 42.1%
CN1CC(Oc2cnc(C#N)cc2-c2ccn3nc(NC(=O)C4CC4)cc3c2)C1  inhibition (EPHB3 (Homo sapiens, UniProt P54753); enzyme activity, inhibitor; 1 µM): -1%
O=C(NCc1cc(O)c(O)c(Br)c1)c1ccc(OC(F)(F)F)cc1  inhibition (rep papain-like protease; enzyme activity, inhibitor, FRET; 10 µM): 75.4%
NC/C(=C\F)COc1cccc(Cn2c(=S)[nH]c(=O)c3[nH]cnc32)c1  inhibition (HTR3A (Homo sapiens, UniProt P46098); ligand displacement, radioligand; 10 µM): < 50%
Cc1cc([C@@H](C)Nc2ccccc2C(=O)O)c2nc(N3CCC(F)(F)CC3)c(C#N)c(=O)n2c1  remaining binding (CSF1R (Homo sapiens, UniProt P07333); binding, competition with immobilised ligand; 10 µM): 94%
O=c1cc(-c2ccc(O)cc2)oc2cc(O)cc(O)c12  inhibition (SLC22A11; transporter uptake, inhibitor; 25 µM): 84.4%
COc1cc(-c2cc(=O)c3c(O)cc(O)cc3o2)ccc1O  inhibition (Helicobacter pylori; microbial growth, broth dilution; 0.24 µg/mL): 6.83%
CCN(O)N=Nc1ccc(S(=O)(=O)Nc2cc(C)on2)cc1  inhibition (AMY2; enzyme activity, inhibitor; 180 µg/mL): 52.6%
CCCCC(=O)Nc1ccc(-c2ccc3ncn(CCC)c(=O)c3c2)c(C)n1  inhibition (PIP4K2C; binding, competition with immobilised ligand; 0.5 µM): 94.3%
N#CC[C@@]12C[C@@H]1[C@@H](n1cnc3c(NCCCCCc4ccccc4)nc(C#Cc4ccc(Cl)s4)nc31)[C@H](O)[C@@H]2O  inhibition (SLC6A2 (Homo sapiens, UniProt P23975); ligand displacement, radioligand; 10 µM): 0%
CCc1nn(C)c2nc(-c3ccc(C(=O)O)cc3)nc(NCc3ccc(F)cc3)c12  inhibition (PDE4A (Homo sapiens, UniProt P27815); enzyme activity, inhibitor, radiometric; 10 µM): 31.2%
CCCCC(=O)Nc1cc(C)c(-c2ccc3ncn(CCC)c(=O)c3c2)cn1  inhibition (PIP4K2C; binding, competition with immobilised ligand; 0.5 µM): 38%
Cc1cc(-c2ccccc2)nc(SCC(=O)NCc2ccccc2)c1C#N  inhibition (NT5E; enzyme activity, inhibitor; 10 µM): 47%
O=C(NCc1cc(O)c(O)c(Br)c1)c1ccco1  inhibition (rep main protease; enzyme activity, inhibitor, FRET; 10 µM): 73.1%
CNc1ncc2c(/C=C/C(=O)N3CCC(OC)CC3)nn(Cc3cccc(C(F)(F)F)c3)c2n1  remaining activity (FGFR4 (Homo sapiens, UniProt P22455); enzyme activity, inhibitor, radiometric; 1 µM): 91%
COc1cc(-c2cncc3c2CN(C)Cc2cc(N4CCNCC4)ccc2-3)cc(OC)c1OC  remaining activity (PRKACA (Homo sapiens, UniProt P17612); enzyme activity, inhibitor; 1 µM): 102%
Cc1cc(C)c(C#N)c(SCC(=O)NCc2ccccc2)n1  inhibition (NT5E; enzyme activity, inhibitor; 10 µM): -16%
CNc1cc(Oc2cc(C(=O)Nc3cc(N4CCN(C)CC4)cc(C(F)(F)F)c3)ccc2C)ncn1  inhibition (Ribosomal protein S6 kinase alpha-3, N-terminal kinase domain (RPS6KA3, Homo sapiens, UniProt P51812); target engagement in cells, inhibitor, chemoproteomics; Huh-7; 1 µM): -70.9%
COc1cc(CNC(=O)c2ccccc2C)cc(Br)c1OC  inhibition (rep papain-like protease; enzyme activity, inhibitor, FRET; 10 µM): 98.2%
N#Cc1c(Cl)c(Cl)c(Cl)c(C#N)c1Cl  inhibition (SLC22A11; transporter uptake, inhibitor; 25 µM): 77.4%
CC(OC(=O)c1cc(Cc2ccccc2)ccc1O)C(=O)Nc1ccc(S(N)(=O)=O)cc1 (stereo not drawn)  IC50 (CA9; enzyme activity, inhibitor): 305 nM
CO[C@H]1/C=C/O[C@@]2(C)Oc3c(C)c(O)c4c(O)c(cc(O)c4c3C2=O)NC(=O)/C(C)=C\C=C\[C@H](C)[C@H](O)[C@@H](C)[C@@H](O)[C@@H](C)[C@H](OC(C)=O)[C@@H]1C  inhibition (CDK7 with cyclin H; enzyme activity, inhibitor, ADP detection; 10 µM): 13.2%
Cc1cccc(NC(=O)CSc2nc(C)cc(-c3ccccc3)c2C#N)n1  inhibition (NT5E; enzyme activity, inhibitor, HPLC; 10 µM): 98%
COc1ccc(C(=O)NCc2ccc(O)c(O)c2)cc1  inhibition (rep papain-like protease; enzyme activity, inhibitor, FRET; 10 µM): 81.5%
CCN(O)N=Nc1ccc(S(=O)(=O)Nc2onc(C)c2C)cc1  inhibition (AMY2; enzyme activity, inhibitor; 300 µg/mL): 68.4%
CC[C@H](C)[C@H](NC(=O)[C@H](CCC(N)=O)NC(=O)[C@@H](NC(=O)[C@H](CCSC)NC(=O)[C@H](CCCCN)NC(=O)[C@H](CO)NC(=O)[C@@H](NC(=O)[C@H](CCSC)NC(=O)[C@H](CC(C)C)NC(=O)[C@H](CC(N)=O)NC(=O)[C@@H](NC(=O)[C@@H](NC(=O)[C@H](CO)NC(=O)[C@H](CC(C)C)NC(=O)[C@H](C)NC(=O)[C@H](CCCNC(=N)N)NC(=O)[C@H](CCC(=O)O)NC(=O)[C@H](Cc1ccc(O)cc1)NC(=O)[C@H](Cc1ccccc1)NC(=O)[C@H](C)NC(=O)[C@H](CC(N)=O)NC(=O)[C@@H](N)CCCCN)[C@@H](C)CC)[C@@H](C)CC)[C@@H](C)O)C(C)C)C(=O)N[C@@H](CC(N)=O)C(=O)N[C@H](C(=O)O)C(C)C  inhibition (Cyclin-dependent kinase 5, with p25 (CDK5, Homo sapiens, UniProt Q00535); enzyme activity, inhibitor, radiometric; 100 µM): 46%
O=C(NCc1cc(O)c(O)c(Br)c1)c1ccc(Cl)s1  inhibition (rep main protease; enzyme activity, inhibitor, FRET; 10 µM): 107%
COc1cc(CNC(=O)c2sc3nc(C)cc(-c4ccccc4)c3c2N)cc(OC)c1OC  inhibition (NT5E; enzyme activity, inhibitor; 10 µM): -31%
Cc1n[nH]c(C)c1CCCOc1cc(OCCCCCCNCCOCCn2cc(C[C@H](NC(=O)CCCCC[N+]3=C(C=CC4=CC(=CC=C5N(C)c6ccc(S(=O)(=O)O)cc6C5(C)C)CCC4)C(C)(C)c4cc(S(=O)(=O)[O-])ccc43)C(=O)NCCCCCC(=O)NCCCC[C@H](NC(=O)N[C@@H](CCC(=O)O)C(=O)O)C(=O)O)nn2)cc(C(=O)O)c1  solubility (PBS; pH 7.4): ≥ 200 µM
C=CC(=O)N1CCC(COCC(=O)N2CCN(c3nc(-c4cnc(N)nc4C(F)F)nc(N4CCOC[C@@H]4C)n3)CC2)CC1  remaining binding (FLT3 (Homo sapiens, UniProt P36888, R834Q); binding, competition with immobilised ligand; 1 µM): 77%
CN(C)c1ccc(C(=O)NCc2cc(O)c(O)c(Br)c2)cc1  inhibition (rep papain-like protease; enzyme activity, inhibitor, FRET; 10 µM): 80.2%
C#CC[C@H](NC(=O)CCCCC[N+]1=C(C=CC2=CC(=CC=C3N(C)c4ccc(S(=O)(=O)O)cc4C3(C)C)CCC2)C(C)(C)c2cc(S(=O)(=O)[O-])ccc21)C(=O)NCCCCCC(=O)NCCCC[C@H](NC(=O)N[C@@H](CCC(=O)O)C(=O)O)C(=O)O  solubility (PBS; pH 7.4): ≥ 200 µM
O=C(NCc1cc(O)c(O)c(Br)c1)c1cccs1  inhibition (rep papain-like protease; enzyme activity, inhibitor, FRET; 10 µM): 13.2%
Cc1cccc(N(O)N=Nc2ccc(S(=O)(=O)Nc3onc(C)c3C)cc2)c1  inhibition (AMY2; enzyme activity, inhibitor; 60 µg/mL): 26.3%
COc1ccc(NC(=O)c2ccc3c(c2)C(=O)NC3=O)cc1Cl  inhibition (MAOB; enzyme activity, inhibitor; 1 µM): 32.4%
Cc1noc(NS(=O)(=O)c2ccc(N=NN(C)O)cc2)c1C  inhibition (AMY2; enzyme activity, inhibitor; 180 µg/mL): 57.9%
O=C(Nc1ccccc1F)c1ccc2c(c1)C(=O)NC2=O  inhibition (MAOB; enzyme activity, inhibitor; 1 µM): 31.4%
Cc1cc(C(=O)COC(=O)c2ccc(Cl)c(S(N)(=O)=O)c2)c(C)n1Cc1cccs1  IC50 (CA9; enzyme activity, inhibitor): 437 nM
Cc1cc(NS(=O)(=O)c2ccc(N=NN(C)O)cc2)no1  inhibition (AMY2; enzyme activity, inhibitor; 300 µg/mL): 68.4%

Excerpt of the above:
CC(=NNC(=O)c1ccccc1Cl)c1ccc(Nc2nnc(-c3ccc(Cl)cc3)c3ccccc23)cc1  cell death (HepG2; cell growth or viability, MTT; 10 µM): 96.8%
COc1ccc(-c2cc(=O)c3c(O)c(OC)c(OC)c(OC)c3o2)cc1  inhibition (CDK7 with cyclin H; enzyme activity, inhibitor, ADP detection; 10 µM): 43.4%
CC(=O)Nc1ccc(Oc2nnc(-c3ccc(Cl)cc3)c3ccccc23)cc1  cell death (HepG2; cell growth or viability, MTT; 78 nM): 0.622%
CCN(O)N=Nc1ccc(S(=O)(=O)Nc2nccs2)cc1  inhibition (AMY2; enzyme activity, inhibitor; 180 µg/mL): 42.1%
